Measured values gathered from unrelated publications.
Compare with care: the assays were run in different laboratories. ± gives the spread as reported.

| Structure (SMILES) | tested on | test | test system | setting | how to read | measurement | value |
| --- | --- | --- | --- | --- | --- | --- | --- |
| O=C(NCc1nnc2n1CCN(Cc1cc3ccccc3[nH]1)CC2)C1CCOC1 (centres unmarked) | 4-1BB human | reporter gene, cell-based reporter |  |  |  | EC50 | 1280 nM |
| COc1cc([C@@H]2c3cc4c(cc3C=C(C=O)[C@H]2C(=O)OCc2ccc(CBr)cc2)OCO4)cc(OC)c1OC | Leishmania infantum | iRFP fluorescence | mouse splenocytes infected, amastigote, iRFP, ex vivo splenic explant | 48 h |  | EC50 | 51900 ± 300 nM |
| O=C1Nc2cccc(C#CC3(O)CCNCC3)c2/C1=C/c1cc2ccccc2[nH]1 | kinase panel majority |  |  |  | baseline: panel kinases over TAO3 | selectivity ratio | 5 to 10 |
| COc1ccc2c(c1)S(=O)(=O)N(CCCCCc1ccccc1)C(=O)O2 | LYPLA1/2, human | enzyme activity, inhibitor, ABPP-SILAC | HEK cell lysate | 25 µM |  | inhibition | no inhibition |
| CCOC(=O)C1=CC(C(=O)OCC)(c2ccc(Br)cc2)CCC1=O (centres unmarked) | p38α MAPK human |  |  |  | baseline: Ki ERK2 over Ki p38α | selectivity ratio | ~40 fold |
| COc1cc([C@@H]2c3cc4c(cc3[C@](O)(C3(O)CCOCC3)[C@H]3COC(=O)[C@H]23)OCO4)cc(OC)c1OC | Leishmania infantum |  | promastigote, iRFP |  |  | EC50 | > 100000 nM |
| CCCCC(C(=O)Nc1ccc(Br)cc1)n1nc(C)cc(Cc2cccc(OC)c2)c1=O (racemic) | human formyl peptide receptors | calcium mobilization, agonist | human neutrophils |  |  | EC50 | 60 nM |
| O=C(Nc1cccc(F)c1)c1cc(S(=O)(=O)N2CCOCC2)c(Cl)cc1Cl | autotaxin (human) | cell invasion | A2058 | 10 µM, 16 h, together with: 0.3 nM autotaxin, 1 µM LPC 18:1 |  | inhibition | 67 ± 14.4% |
| O=C(NNC(=S)Nc1cccc(C(F)(F)F)c1)c1cccn1-c1ccc(F)cc1 | androgen receptor | reporter gene, antagonist | MDA-kb2 | 20 h, together with: DHT 0.2 nM |  | IC50 | 700 nM |
| CCOc1cc(C(=O)N2CCC(N3CCN(C)CC3)CC2)ccc1Nc1ncc2c(n1)N(C(C)C)c1ccccc1C(=O)N2C | ERK5, human | autophosphorylation | HeLa | together with: EGF |  | EC50 | 25 ± 7 nM |
| C/C=C/Cn1c(Cc2cc(OC)c(OC)c(OC)c2)nc2c(N)ncnc21 | Hsp90β | binding, fluorescence polarization competition |  | together with: Cy3B-geldanamycin tracer |  | Ki | 16900 ± 2200 nM |
| COc1cc(C(=O)N2CCC(N3CCN(C)CC3)CC2)ccc1Nc1ncc2c(n1)N(C1CCCC1)c1ccccc1C(=O)N2C | ERK5, human | autophosphorylation | HeLa | together with: EGF |  | EC50 | 80 ± 20 nM |
| O=C(CCCCCCC(=O)Nc1ccc(-c2c3ccc(=O)cc-3oc3cc(O)ccc23)c(C(=O)O)c1)NO | HDAC6 H651V (human) | binding, fluorescence anisotropy |  |  | baseline: H651V mutant over wild type, higher = weaker binding | Kd ratio | 150 fold |
| NCc1cccc(C2CCN(C(=O)c3cccc(NC(=O)C(O)C4(O)CCC4)c3)CC2)c1 (racemic) | tryptase, human | enzyme activity, inhibitor | HMC-1, supernatant after degranulation | 2 h, together with: 1 µM A23187 for 1 h |  | IC50 | 137000 nM |
| CC(C)Oc1cc(C(=O)N2CCC(N3CCN(C)CC3)CC2)ccc1Nc1ncc2c(n1)N(C1CCCC1)c1ccccc1C(=O)N2C | ERK5, human | autophosphorylation | HeLa | together with: EGF |  | EC50 | 32 ± 9 nM |
| CCC(NC(=O)[C@@H](NC(=O)[C@@H](NC(=O)CNC(=O)[C@H](CCCNC(=N)N)NC(=O)[C@H](Cc1ccc(O)cc1)NS(=O)(=O)c1cccc2c(N(C)C)cccc12)[C@@H](C)CC)[C@@H](C)O)B(O)O (some centres unmarked) | Lon protease (rat) | protein degradation, import pulse-chase, refers to: radiolabelled StAR | isolated rat liver mitochondria | 10 µM, 120 min chase, 30 °C |  | StAR remaining | 83% |
| COc1cccc(Cc2cc(C)nn(C(C)(C)C(=O)Nc3ccc(Br)cc3)c2=O)c1 | human formyl peptide receptors | calcium mobilization, agonist | human neutrophils |  |  | EC50 | 4700 nM |
| Nc1ccc(Cl)c2cccnc12 | methionine aminopeptidase | immunoblot | HUVEC | up to 10 µM |  | Met-14-3-3γ level | no effect |
| COc1cccc(Cc2cc(C)nn(C(C(=O)Nc3ccc(Br)cc3)C(C)C)c2=O)c1 (racemic) | human formyl peptide receptors | calcium mobilization, agonist | human neutrophils |  |  | EC50 | 3000 nM |
| CC(Oc1cc(-c2ccccn2)nc2ccccc12)C(=O)N(C)c1ccccc1 (racemic) | human receptor and transporter panel | specific binding, radioligand binding screen |  | 10 µM, all targets except 5-HT1A |  | inhibition | < 50% |
